Measurements from different studies.
Every numbered part comes from another study and shows a few of its results, in no order.

Sample 1 — method: RNA Bind-n-Seq; form: RNA; sample: in vitro; concentration: 365 nM; reference: no-protein control; reading: higher = stronger binding
Target: RNA binding protein fox-1 homolog 2, RRM domain, GST-SBP tag (RBFOX2, Homo sapiens, UniProt O43251-10, residues 100-194)
Setting: natural RNA segment, single round, ends assumed
Residues (chain): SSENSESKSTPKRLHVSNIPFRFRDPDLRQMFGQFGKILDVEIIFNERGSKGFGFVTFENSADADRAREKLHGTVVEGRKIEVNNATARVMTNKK
Under “RBNS enrichment (R)”, `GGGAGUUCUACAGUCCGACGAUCUAUCAAGCCUCUGCCUUGGUUUCUGAGCUAUAUGAGGGUGGGGAAGGCACACUCUUUUUUCCUUUUUCCUUAGGUUCCCAAUAUUAUUUGGUGGAAACGUGGGCUUUCUCUGGAAUUCUCGGGUGCCAA` is recorded as 0.467.
`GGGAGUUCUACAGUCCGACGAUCCUCCUCCUUUACAAGAGCUUUCCUCUCCUCUCUCUUGCUCUCAGAGACCUAUAAAUCCAACCAGUUACCCUGCAAGUCAGCCCCAUCUGCUGUUCCUUGGUCUCUAAUCAUGGAAUUCUCGGGUGCCAA`: “RBNS enrichment (R)” 0.817.
`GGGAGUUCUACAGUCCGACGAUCUCGGUCCCUGCCUUGUCUGUCUAGGCCCAUUUGGGGCUCCCUGUGAGUGAUUCCCCUCUCUCUGCUAUGCUGGAGACGGUUCCAGCCUGGAAAGCGGCCAAGUUCAUCUUUGGAAUUCUCGGGUGCCAA`: “RBNS enrichment (R)” 0.305.
For `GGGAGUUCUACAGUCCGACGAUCCUCGUUGUUUUCCCAAAGCUAAAUCUUUAUACUAAAUGCAAUACUGACUUUUUCUUAAGUAGCUAAAGACCGAGAGUAUACUAUCUUUAGGGAUAGUCAUUUCUCAAAUGUGGAAUUCUCGGGUGCCAA`, “RBNS enrichment (R)” read 0.342.
For `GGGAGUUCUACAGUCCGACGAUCCAAAGAGAAUAACUUUGAACUGAGGGUGUGUAUCAGAGUAUGUACAUAUGUAAUAUACCCUUAUAUUAUGUAUGAGGGAUUUAAAAUAUUGAAAUGGUUUCCUAGUGGUAUGGAAUUCUCGGGUGCCAA`, “RBNS enrichment (R)” read 0.612.
Under “RBNS enrichment (R)”, `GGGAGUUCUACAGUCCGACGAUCCAGUUCCGGUUAUGUUUUUCUCCAAAACCUGAACAUUUUUACUCUGUUGGCUCAUUCUAUUUUGACUAAUGUUACAAAGUACUGAAAAAACUGUAGAAUAGAUAUUUUUAUGGAAUUCUCGGGUGCCAA` is recorded as 0.682.
`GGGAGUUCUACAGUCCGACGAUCGGAGUUUGAAUGUGAUGAUUAAAAAAAGAGCCAAGGAAAAAGGUAGCUAGAAAAAAAGGUUGGCUCUCAUCAGCCUUAAUUUUGGAAAGCAGCUACUUACCCCUCAGAGAUGGAAUUCUCGGGUGCCAA`: “RBNS enrichment (R)” 1.73.
`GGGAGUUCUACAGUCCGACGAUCUGCAUCAGGAAUUUACCAGGAGAUGGAAAAGAACAGAAAAAGCCCUGAGCCUGUGUGUGUUCCUUCCGGCACCUGGCCAGCAUGGAGGGCUCUCCCUAGUCCUAGUGUGUUGGAAUUCUCGGGUGCCAA`: “RBNS enrichment (R)” 1.38.

Sample 2 — method: RNA Bind-n-Seq; form: RNA; sample: in vitro; concentration: 200 nM; setting: whole 134-nt RNA, ends assumed; together with: 150 mM LiCl; reference: input library; reading: higher = stronger binding; all molecules: 7-deaza-guanosine replaces G
Target: Ras GTPase-activating protein-binding protein 1, full length (G3BP1, Homo sapiens, UniProt Q13283)
Chain of UniProt Q13283 (whole entry, looked up): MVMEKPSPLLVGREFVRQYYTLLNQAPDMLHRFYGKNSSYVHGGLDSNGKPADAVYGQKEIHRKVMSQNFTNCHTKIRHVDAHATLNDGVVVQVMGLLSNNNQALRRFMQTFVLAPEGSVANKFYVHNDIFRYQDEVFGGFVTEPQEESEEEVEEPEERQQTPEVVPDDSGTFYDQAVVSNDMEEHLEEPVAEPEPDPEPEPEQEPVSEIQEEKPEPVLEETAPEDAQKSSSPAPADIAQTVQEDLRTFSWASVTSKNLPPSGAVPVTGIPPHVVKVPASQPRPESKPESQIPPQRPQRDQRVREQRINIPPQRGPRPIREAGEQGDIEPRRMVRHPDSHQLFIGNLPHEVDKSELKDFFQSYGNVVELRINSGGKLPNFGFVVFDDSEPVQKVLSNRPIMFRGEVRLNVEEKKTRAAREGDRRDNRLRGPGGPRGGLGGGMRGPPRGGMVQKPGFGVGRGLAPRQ
With `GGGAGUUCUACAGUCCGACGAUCUCUAUCCUGUCCCUCCACCCCACCCUCCACCUCAAUCCCCUCCCAUCUUCCCCAGACCUACCUCACCUACUAGGACCUGAGGCAGCUCCUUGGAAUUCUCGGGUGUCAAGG` the log2 enrichment was -0.0622.
With `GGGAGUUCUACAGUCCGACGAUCUGUGCUACACAUCGUAUGUACCGAAUCGGGGAAAAAGGGGUUUUUUUGGGGAAAAAAAGGGGAAAGUAUUAUGUUACGCCGUUCGGAUCUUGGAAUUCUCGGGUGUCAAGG` the log2 enrichment was 0.00511.
With `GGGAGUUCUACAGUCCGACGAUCUGGAGAUGACAGAAAUGACUGGUGUGUCGCUGAAACGUGGGGCACUGGUUGUCGAAGAUAAUGACAGUGGAGUCCCAGUUGAAGAGACAAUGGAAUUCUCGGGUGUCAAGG` the log2 enrichment was -2.86.
For `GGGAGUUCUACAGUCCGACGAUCCCUCAAGUCCUGUGCUACACAUCGUAUGUACCGAAUCGGUGGUUUUUGGUGGAAAGUAUUAUGUUACGCCGUUCGGAUCUGCACUUCCAGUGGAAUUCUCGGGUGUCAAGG`, the log2 enrichment was 0.409.
`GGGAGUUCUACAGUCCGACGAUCCUGUGCUACACAUCGUAUGUACCGAAUCGGGCCCCCCCGGGCCCCCCCGGCCCCCCCGGGGAAAGUAUUAUGUUACGCCGUUCGGAUCUGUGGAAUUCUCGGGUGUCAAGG` gave a log2 enrichment of -0.574.
`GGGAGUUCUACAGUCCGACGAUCACCAUGCAGGUGGGCAUCUUUGAGAAGUGGGGCAAGGGGGGGAUAGGGAGGGGGGUAACACUUUGGGAACAGGUGGUCCCAGGUCGUUUCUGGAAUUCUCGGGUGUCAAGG` gave a log2 enrichment of 0.266.
`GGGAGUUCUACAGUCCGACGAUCAGUCCUGUGCUACACAUCGUAUGUACCGAAUCGGGGAGGGGAAAAAGGGGUUUGGGGAAAGUAUUAUGUUACGCCGUUCGGAUCUGCACUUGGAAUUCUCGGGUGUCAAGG` gave a log2 enrichment of -0.66.
With `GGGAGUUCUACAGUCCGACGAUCGCAGGAAGUAAAAACAAAUGGAAAUGCUUCGGAUAGUAAAAGGGGUGGGGGUUGCUAAGGAAAGGGUGGGAUGGGAGUGGGUAAAGAGUUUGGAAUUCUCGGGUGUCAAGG` the log2 enrichment was 0.209.

Sample 3 — method: universal PBM; form: double-stranded DNA, one strand shown; sample: in vitro; concentration: not given; reading: higher = stronger binding
Target: Sal-like protein 4, full length isoform B (SALL4, Homo sapiens, UniProt Q9UJQ4-2, residues 1-616)
Setting: 8-mer, flanks averaged, mean of replicates
Residues (chain): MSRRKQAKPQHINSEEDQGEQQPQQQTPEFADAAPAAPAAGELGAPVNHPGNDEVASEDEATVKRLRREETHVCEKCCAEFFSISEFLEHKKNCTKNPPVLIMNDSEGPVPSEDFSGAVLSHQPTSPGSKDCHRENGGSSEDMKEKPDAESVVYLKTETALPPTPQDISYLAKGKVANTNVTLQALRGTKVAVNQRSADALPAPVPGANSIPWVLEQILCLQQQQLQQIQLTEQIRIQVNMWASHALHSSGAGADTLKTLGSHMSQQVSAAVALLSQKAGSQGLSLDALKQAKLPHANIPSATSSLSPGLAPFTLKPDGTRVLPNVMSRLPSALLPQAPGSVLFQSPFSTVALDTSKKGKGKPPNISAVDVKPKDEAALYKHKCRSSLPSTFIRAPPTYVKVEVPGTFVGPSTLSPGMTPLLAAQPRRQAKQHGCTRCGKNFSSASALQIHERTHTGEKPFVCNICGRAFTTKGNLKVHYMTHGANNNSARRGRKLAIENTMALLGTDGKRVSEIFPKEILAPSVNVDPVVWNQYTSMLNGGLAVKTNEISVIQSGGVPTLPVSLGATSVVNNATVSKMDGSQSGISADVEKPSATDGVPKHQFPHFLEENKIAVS
For `CCTCTCCC`, the E-score was -0.215.
`AAATCACG` gave an E-score of 0.0965.
For `AAAATCTT`, the E-score was 0.284.
`CCCAGTGC` has an E-score of -0.376.
With `CTCGACCC` the E-score was -0.266.
With `GTCGCCTA` the E-score was -0.204.
The E-score of `AAACCGGA` is reported as 0.0496.
For `TGTAATAA`, the E-score was 0.443.
`CACTTCGG` has an E-score of -0.177.
With `AGCATGTG` the E-score was 0.061.
The E-score of `GACCACGA` is reported as -0.233.
`CCCTCAAA` gave an E-score of -0.093.
With `GGGTTGAC` the E-score was -0.152.
With `ATTATAGG` the E-score was 0.309.
`GAGATTAC` has an E-score of -0.0152.
With `AGAGATTG` the E-score was 0.0705.
For `CTGATCAC`, the E-score was -0.0119.
The E-score of `ACAGCCAG` is reported as -0.0915.
`ACCACGAA` gave an E-score of -0.0998.
`CACGAGTA` has an E-score of 0.0517.
For `CTCTTGGA`, the E-score was -0.135.
With `CTTTGGAC` the E-score was -0.0723.
For `CACACTAC`, the E-score was 0.00806.
With `GAGTCTGC` the E-score was -0.284.
For `CCCTTAAA`, the E-score was 0.175.

Sample 4 — method: protein binding microarray; form: double-stranded DNA, one strand shown; sample: in vitro; concentration: not given; reference: not given; reading: higher = stronger binding
Target: Histone acetyltransferase KAT6A, winged helix 1, GST fusion (KAT6A, Homo sapiens, UniProt Q92794, residues 1-85)
Setting: 8-mer, flanks averaged, mean of 2 arrays, mostly near background
Target sequence (chain): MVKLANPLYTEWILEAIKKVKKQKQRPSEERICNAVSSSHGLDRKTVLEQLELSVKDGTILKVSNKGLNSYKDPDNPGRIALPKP
`CACGTTTA` gave an E-score of -0.246.
The E-score of `ACTACAGT` is reported as -0.158.
`AGTACGAG` has an E-score of -0.0151.
`TCTAGTCA` gave an E-score of -0.142.
`ACTGATCC` gave an E-score of -0.182.
With `CGGCAAGC` the E-score was 0.36.
`AGACGGAT` gave an E-score of 0.149.
For `ATGCAAAT`, the E-score was -0.161.
`GACATCCC` gave an E-score of 0.0917.
The E-score of `CCAAGAAG` is reported as -0.124.
`AATGAATC` gave an E-score of -0.185.
The E-score of `CCGAACCA` is reported as 0.03.
`TCGAGTCA` has an E-score of -0.0391.
`CCAGTCAG` gave an E-score of -0.115.
With `CAGGATTC` the E-score was -0.154.
With `GCCTAAGC` the E-score was -0.0313.
The E-score of `TCTGGCCA` is reported as -0.289.
The E-score of `ACCAACAT` is reported as -0.0788.
With `AGGTGCGG` the E-score was 0.213.
`ACAGACAG` gave an E-score of -0.0746.
For `CCAGTGCG`, the E-score was 0.173.
The E-score of `CGTAGGAC` is reported as 0.149.
`AGAATCGG` gave an E-score of 0.1.
For `ACTCCTAG`, the E-score was -0.0741.
`AAGAGCGC` has an E-score of 0.267.
